Measurements pooled from the literature.
Compare with care: the assays were run in different laboratories. Numbers after ± are the reported error. In brackets after ≈: the same amount, converted by molar mass.

SMILES | tested on | test | system | setting | scale | endpoint | result
COc1cc2[nH]c(C)c(-c3ccc(C)cc3C)c(=O)c2cc1Cl |  |  |  | pH 7.4 |  | kinetic solubility | < 2 µM
CN1CCC[C@H](CN2c3ccccc3Sc3ccccc32)C1.Cl |  |  | ICR mouse female fasted, plasma | oral, 16 mg/kg |  | Tmax | 1 h
CCOc1c([C@H](C)n2nc(C)c3c(N)ncnc32)cc(Cl)c(F)c1[C@@H]1CNC(=O)C1 |  | measured: QRS >100 to ≤110 ms | previously treated B-cell malignancy | oral, 5 mg once daily, baseline below thresholds |  | ECG observations | 0%
CCCOc1ccc(NC(=O)CN2CCN(C)CC2)cc1-c1nc(CC)c(CC)c(=O)[nH]1 |  | least-squares mean difference | healthy Chinese men | 10 mg, together with: alcohol 0.5 g/kg | reference: compound plus placebo | AUEC(0-4 h) pulse rate difference | 18.2 h·bpm
CO[C@]1(C(=O)N[C@@H](C)c2ccc(-n3cc(F)cn3)nc2)CC[C@H](c2nc(C)cc(Nc3cc(C)[nH]n3)n2)CC1 |  |  | humans, urine | oral, dose not given | reference: dose | excreted radioactivity | 6.06%
COc1ccc2c(=O)n(C)c(-c3ccccc3)nc2c1 |  |  | Sprague-Dawley rat, male, bladder | oral, 30 mg/kg, 0.5 h | reference: bladder over plasma | tissue/plasma ratio | 2.95
Nc1ncnc2c1ncn2[C@H]1C[C@@H]2OP(=O)(O)OC[C@H]3O[C@@H](n4cnc5c(N)ncnc54)C[C@@H]3OP(=O)(O)OC[C@H]2O1 |  |  | non-tumor-bearing mice, blood | intravenous, 1 mg/kg, toxicity study |  | plateletcrit | 0.11 ± 0.09%
Cn1ccnc1CNc1nc(-c2ccccn2)nc2ccccc12 |  |  | Japanese Pharmacopoeia disintegration test solution 2 | pH 6.8 |  | kinetic solubility | 80 µg/mL
Cc1cc(C)c(S(=O)(=O)N(C)CC(=O)N2CCC(C(N)=O)CC2)c(C)c1 |  |  | aqueous buffer | pH 7.4 |  | thermodynamic solubility | 784 µM (≈ 299 µg/mL)
CCN(CC)Cc1ccc2cc(COC(=O)Nc3ccc(C(=O)NO)cc3)ccc2c1 |  |  | rat plasma | 800 ng/mL, 21 days, -80 °C | reference: nominal concentration | stability relative error | 97.5%
CNCc1ccc(-c2[nH]c3cc(F)cc4c3c2CCNC4=O)cc1 |  |  | human patients | oral, 360 mg twice daily, all grades |  | dyspnoea incidence | 37.5%
COc1cccc(OC)c1-c1cc(C(=O)NC2(C(=O)O)C3CC4CC(C3)CC2C4)nn1-c1ccc(C(=O)N(C)CCCN(C)CCCN(C)C(=O)CN2CCN(CC(=O)[O-])CCN(CC(=O)[O-])CCN(CC(=O)[O-])CC2)cc1C(C)C.[177Lu+3] (stereo not shown) |  |  | mouse, HT-29 xenograft | 24 h post injection, biodistribution | reference: tumour over liver uptake | tumour-to-liver ratio | 20.1
O=C(Nc1nc2cccc(-c3ccc(CN4CCS(=O)(=O)CC4)cc3)n2n1)C1CC1 |  | measured: vomiting | rheumatoid arthritis patients | oral, 150 mg once daily, 4 weeks, any relatedness |  | treatment-emergent adverse events | 0%
C=CC(=O)Nc1cc(Nc2nccc(-c3cn(C)c4ccccc34)n2)c(OC)cc1N(C)CCN(C)C |  | measured: maculopapular rash | EGFR-mutant MET-altered NSCLC patients | oral, dose not given, AE grade ≥3, all |  | incidence of treatment-related AEs | 1%
CC(C)(C(=O)N1CCOc2c(C#N)cncc2C1)C(F)F |  | measured: nervous system disorders | human | oral, 20 mg twice daily, 14 days, multiple ascending dose |  | subjects with adverse event | 25%
CC(C)(CO)c1cc2cc(NC(=O)C3(c4ccc5c(c4)OC(F)(F)O5)CC3)c(F)cc2n1C[C@@H](O)CO |  |  | pregnant women with cystic fibrosis, plasma | dose not given | reference: non-pregnant individuals | AUC reduction | 43%
CCCOc1ccc([C@H]2CNC(=O)N2c2ccc3[nH]cnc3c2)cc1 |  |  | human, urine | oral, dose not given, 24 h | reference: dose | unchanged drug in urine | ~5%
CCOC(=O)c1cnc(Nc2nc3ccccc3o2)nc1CN1CCN(c2ccccc2)CC1 |  |  | aqueous buffer | pH 7.4 |  | thermodynamic solubility | < 3.57 µM
C=CCN1CC(=O)N2[C@@H](Cc3ccc(O)cc3F)C(=O)N(Cc3cccc(N4CC(N5CCN(CC)CC5)C4)n3)C[C@@H]2N1C(=O)NCc1ccccc1 |  |  | advanced solid tumour patients | oral, 120 mg twice daily, grade ≥3, dose-escalation |  | treatment-related AST increased | 0%
CSc1ccccc1C(=O)NCCn1cc(C(=O)NCc2cccc(C)n2)c(=O)c2cc3c(cc21)OC(F)(F)O3 |  |  | Sprague-Dawley rat, male, plasma | intravenous, 5 mg/kg of parent drug |  | Cmax | 278 ± 40.8 ng/mL
COc1cc2nccc(Oc3ccc(NC(=O)C4(C(=O)Nc5ccc(F)cc5)CC4)cc3)c2cc1OC |  |  | patients without relevant toxicity, plasma | oral, dose not given, mean |  | Ctrough | 574 ng/mL
Cc1ccc(Sc2ccccc2N2CCNCC2)c(C)c1 |  | measured: Dizziness | healthy adult women | oral, 5 mg daily, 12 days |  | participants with TEAE | 0%
COc1ccccc1OCC(O)CN1CCN(CC(=O)Nc2c(C)cccc2C)CC1 (stereo not shown) | Nedd8-cullin1 interaction | neddylation, AlphaScreen |  | 100 µM |  | inhibition | 14.2%

SMILES | tested on | test | system | setting | scale | endpoint | result
Cc1nc2cccc(OCC(C)(C)C(=O)NC(C)C)c2c(N)c1C(=O)O |  |  | Sprague-Dawley rat, male, plasma | oral, 100 mg/kg, day 7 over day 1, 7-day repeated dosing | reference: day 7 over day 1 | Cmax ratio | 0.8 ± 0.48
CNC(=O)c1ccc(-c2cnc3ncc(Cc4ccc5ncccc5c4)n3n2)cc1F |  | measured: Vomiting | gastric cancer patients | oral, 600 mg twice daily, expansion cohort, grade 3-4 |  | patients with adverse event | 0%
Cc1ccc(N(CC2=NCCN2)c2cccc(O)c2)cc1 | Nedd8-cullin1 interaction | neddylation, AlphaScreen |  | 100 µM |  | inhibition | 10.1%
c1csc(CNc2cc[nH]n2)c1 |  | DNA damage, alkaline comet | Hsd:ICR(CD-1) mice, female, liver | oral gavage, 1000 mg/kg/day, 3 days |  | tail DNA (mean) | 2.4%
O=C(Nc1cccc(-c2nc3ccccc3o2)c1)c1cc([N+](=O)[O-])c(F)cc1F |  |  | phosphate buffer | pH 7.4 |  | kinetic solubility | < 1.6 µM
C=CC(=O)Nc1cc(Nc2nccc(-c3cn(C)c4ccccc34)n2)c(OC)cc1N(C)CCN(C)C |  | storage stability | human plasma | 30 d, on ice, MQC level |  | recovery | 50.3%
C1=C/COCc2cc(ccc2OCCN2CCCC2)Nc2nccc(n2)-c2cccc(c2)COC/1 |  |  | rat plasma | 2 ng/mL, 4 h, room temperature | reference: nominal concentration | stability relative error | 3.34%
O=C(N[C@H](Cc1c[nH]c2ccccc12)C(=O)Nc1ccncc1)c1ccc(-c2cc(C(F)(F)F)ccc2F)cc1F |  |  | Swiss Webster mouse, female, liver | oral, 50 mg/kg, 2 h, 20% Kolliphor vehicle |  | concentration | 81 µM
CCCC[C@H]1CC[C@H](c2ccc(C#N)cc2)CC1 |  |  | Sprague-Dawley rat, female, placenta | 5000 ng/mL in perfusate, 50 (unit not given), high dose, mixture of 21 LCMs |  | median placental accumulation | 311 ng/g
O=C1NCCc2nc(OCc3cccc(F)c3)ccc21 |  | modified Irwin test | Sprague-Dawley rat, male | oral, 100 mg/kg, 1 h | higher = stronger change | respiratory rate score | 0
CCn1cc(C(=O)N2CCOCC2)c(=O)c2cc(NC3Cc4ccccc4C3)cnc21 |  |  | human, fasted | oral suspension, 15 mg single dose, arithmetic mean |  | AUC(0-inf) | 510 ng·h/mL
Cc1cc(Nc2ccc(S(F)(F)(F)(F)F)cc2)n2nc(C(C)(F)F)nc2n1 |  |  | Plasmodium vivax malaria patients | oral, 600 mg |  | adverse event Fatigue | 0%
NS(=O)(=O)OC[C@@H]1C[C@@H](n2ccc3c(N[C@H]4CCc5ccccc54)ncnc32)C[C@@H]1O |  |  | human, plasma | day 8 cycle 1, median, all dose levels, together with: irinotecan and temozolomide |  | clearance | 19.4 L/h/m2
OC[C@H]1O[C@@H](c2ccc(Cl)c(Cc3ccc(O[C@H]4CCOC4)cc3)c2)[C@H](O)[C@@H](O)[C@@H]1O |  |  | Japanese type 1 diabetes patients, blood | 10 mg, day 28 | reference: baseline | change in Sodium | 1 mEq/L
C[C@H]1CN(C(=O)CC#N)[C@]12CCN(c1ncnc3[nH]ccc13)C2 |  |  | healthy human | oral, 1.5 mg, single dose |  | subjects with Vomiting | 0%
C[C@@H]1COCCN1c1cc(C2([S@](C)(=N)=O)CC2)nc(-c2cc[nH]c3nccc2-3)n1 |  |  | Japanese advanced solid tumour patients | oral, 160 mg twice daily, any grade |  | Paronychia incidence | 16.7%
Cc1nc(-c2ccc(OCC(C)C)c(C#N)c2)sc1C(=O)O |  |  | healthy Chinese subjects, fasted | oral, 40 mg single dose |  | subjects with ALT increase | 2.6%
Cc1cc(NC2CCN(C(=O)OC3CCN(C(=O)/C=C/CN(C)C)C3)CC2)n2ncc(C(C)C)c2n1 (stereo not shown) |  |  | patients with advanced solid tumours | dose not given, QD arm, any grade |  | patients with Hypomagnesemia | 12%
Cc1nc(-c2ccc(OCC(C)C)c(C#N)c2)sc1C(=O)O |  |  | human, plasma | oral, 10 mg, together with: verinurad 5 mg | reference: test over reference | geometric mean ratio AUC(0-24) | 97.6
CCCC1CCC(c2ccc(-c3ccc(F)c(F)c3)cc2)CC1 (stereo not shown) |  |  | Sprague-Dawley rat, female, fetus | 5000 ng/mL in perfusate, 50 (unit not given), high dose, mixture of 21 LCMs |  | median fetal accumulation | 0.06 ng/g
Cc1cc(Nc2cc3ncccc3c(N[C@@H]3C[C@H]4CC[C@@H](C3)N4CCC#N)n2)n[nH]1 |  |  | human, plasma | 270 mg, day 1, geometric mean |  | AUC(0-4) | 21.2 ng·h/mL
Cn1cc(Nc2nccc(-c3ccc4c(c3)CN(C3COC3)CC[C@H]4NC(=O)c3cn(C(C)(C)C)nn3)n2)cn1 |  |  | human, whole blood | 300 mg twice daily, day 7 | reference: pre-dose baseline | class-switched memory B cell change | 97.1%
CCCCC[C@H]1CC[C@H](c2ccc(OCC)c(F)c2F)CC1 |  |  | rat, placenta | 1000 ng/mL in perfusate, middle dose, mixture of 21 LCMs |  | median placental accumulation | 14.5 ng/g

A few entries again:
SMILES | tested on | test | system | setting | scale | endpoint | result
CC(C)(C(=O)N1CCOc2c(C#N)cncc2C1)C(F)F |  | measured: nervous system disorders | human | oral, 20 mg twice daily, 14 days, multiple ascending dose |  | subjects with adverse event | 25%
COc1cc2nccc(Oc3ccc(NC(=O)C4(C(=O)Nc5ccc(F)cc5)CC4)cc3)c2cc1OC |  |  | patients without relevant toxicity, plasma | oral, dose not given, mean |  | Ctrough | 574 ng/mL
CN1CCC[C@H](CN2c3ccccc3Sc3ccccc32)C1.Cl |  |  | ICR mouse female fasted, plasma | oral, 16 mg/kg |  | Tmax | 1 h
CCOC(=O)c1cnc(Nc2nc3ccccc3o2)nc1CN1CCN(c2ccccc2)CC1 |  |  | aqueous buffer | pH 7.4 |  | thermodynamic solubility | < 3.57 µM
